# Published values of several laboratories.
# Each numbered part is a random draw from the data of one study; scales do not carry over between parts. Changes are numbered by the printed parent chain.

# Study 1
# Target: HLA class I histocompatibility antigen, A alpha chain, allele A*25:01 (Homo sapiens, UniProt P04439)
# Read-out: peptide-MHC binding
# Form: peptide
# Tested at: concentration not given
Molecule,binding
LEARVNLSV,inactive
YYFSYPLFV,inactive
LLAMTFWPA,inactive

# Study 2
# Target: Eukaryotic initiation factor 4A-I (EIF4A1, Homo sapiens, UniProt P60842, residues 1-406, full length assumed)
# Chain of UniProt P60842 (whole entry, looked up): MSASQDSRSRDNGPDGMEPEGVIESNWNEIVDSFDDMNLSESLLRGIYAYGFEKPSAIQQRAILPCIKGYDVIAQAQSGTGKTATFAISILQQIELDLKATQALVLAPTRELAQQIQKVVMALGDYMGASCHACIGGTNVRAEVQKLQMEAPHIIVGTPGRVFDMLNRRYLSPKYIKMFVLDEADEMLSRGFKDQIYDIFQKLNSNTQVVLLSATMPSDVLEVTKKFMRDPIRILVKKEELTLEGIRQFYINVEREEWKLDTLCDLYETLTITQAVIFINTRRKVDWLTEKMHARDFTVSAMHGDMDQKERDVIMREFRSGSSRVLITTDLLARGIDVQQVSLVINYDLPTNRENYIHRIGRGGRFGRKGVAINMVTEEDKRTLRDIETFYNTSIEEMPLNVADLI
# Technique: RNA Bind-n-Seq
# Form: RNA
# Medium: in vitro
# Tested at: not given
# Setting: 4-mer, random 30-nt RNA, single round
# With: RocA, ADP, phosphate
# Relative to: input library
# Direction: higher = stronger binding
Oligonucleotide,4-mer enrichment [fold]
CCCA,0.644
AUGU,0.935
AACA,0.852
CACA,0.687
UGAU,0.878
CUCG,0.536
ACUC,0.468
UAAU,0.901

# Study 3
# Target: Hepatocyte nuclear factor 3-alpha (Foxa1, Mus musculus, UniProt P35582, residues 1-468, full length assumed)
# Technique: EMSA with sequencing
# Form: double-stranded DNA, one strand shown
# Medium: in vitro
# Tested at: 10 and 20 nM
# Setting: whole designed probe, mean of two concentrations, ends assumed
# Relative to: negative control set to 0
# Direction: higher = stronger binding
# Construct (chain): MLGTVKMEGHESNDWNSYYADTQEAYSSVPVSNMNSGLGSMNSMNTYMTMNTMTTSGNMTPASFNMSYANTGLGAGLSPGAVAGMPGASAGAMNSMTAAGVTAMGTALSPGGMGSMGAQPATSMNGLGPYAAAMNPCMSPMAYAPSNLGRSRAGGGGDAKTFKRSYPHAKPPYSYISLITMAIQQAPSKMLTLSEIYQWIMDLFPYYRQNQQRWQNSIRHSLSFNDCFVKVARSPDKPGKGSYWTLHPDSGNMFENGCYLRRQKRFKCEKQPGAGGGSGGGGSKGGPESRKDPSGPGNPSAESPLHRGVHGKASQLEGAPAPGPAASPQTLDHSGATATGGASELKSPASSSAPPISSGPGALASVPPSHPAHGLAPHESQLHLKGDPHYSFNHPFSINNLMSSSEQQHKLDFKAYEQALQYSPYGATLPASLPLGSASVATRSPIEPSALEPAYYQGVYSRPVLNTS
Oligonucleotide,normalised bound fraction
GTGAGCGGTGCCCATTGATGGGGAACATACAGGTTTTATAACATATGTAGTTAAGGTTTCTAAAGTGAGATTATGTCTCAACTAACTATAACTGAAATAGAAGAGTGTATCTATTCCAATGTAAACATGTTGACTGATAATGAGAAAAATGATCCTTATAAAGAATAGCAAATCATGATCCTGAGAGAGTAAGTATCAAAGCTGATGGGAGGATGCTATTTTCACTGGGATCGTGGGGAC,0.348 ratio
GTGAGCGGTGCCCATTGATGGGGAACGACTATGCCTATACTCTAAGCAAGGGATTCTGAACGTATGATTAGCAACAGATGTGTTTACATGAAGGGTTGAGAGTGGATCTCTTGTTGCATGTTTACATTAAGTTCTCATAAAAATCAATTATATTTTTGGGAGACTATTTTGATGTTATTTTGGGGGTTAATGGAGACTAAGTCCTATTAATTATGATATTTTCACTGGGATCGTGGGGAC,0.361 ratio
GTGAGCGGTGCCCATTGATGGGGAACAATTATAAATATATAATTATAAATTTATATAAAAATATGTAATTATAAATATGTAATTATATCTAATAGGGTATATTATTTTTTCTAAAACAAAGTAATCTTACAAATGAGAGATTAAACAAATTAGCATAACATAAATTTATCTGCTCTAAAGCTGGGAAAAGATGTGAAAGAAATTATTTTTGTCTTTAAATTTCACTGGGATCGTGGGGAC,0.173 ratio
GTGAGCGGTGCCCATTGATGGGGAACACCAAAGTATCACAGGGAGAGATGGGCCTCTTGGGGCAGCAGCAGCAGCTGAAGCAGGCTGACTCACAGCTGCTTCTAATATGCTAGGCTTTGTGTAAACAGGCTTTATGACACAAGTGGGCTGACTACAGTGCAATTGGAGTGTGGCATCTGAGTCACTGTGAGGCTCTAGCTGGCTTCTTCCAGCCCTGGCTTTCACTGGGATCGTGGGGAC,0.308 ratio
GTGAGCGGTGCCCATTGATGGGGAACTCCTTTATCCCAACATGTTTATACAGACAAAACCAGGTTAAAATCGACACAAGGTCAACTTGAAATGGGGAAAGACGTAGGTGACGTCACAAAATAAACATGAAGTCTTGTGTACAAGCATCTGCAGAAGAGTTCAGCCTCACCACTTGGGTAATGCTGTTGGAATGTGGTCTGGGTTCACTGTATTTGAATGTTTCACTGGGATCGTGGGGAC,0.378 ratio
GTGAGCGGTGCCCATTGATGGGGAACTAGTCCCTCTTTCAAAAAACTTGCTAGATGCAAAACGATAGATATGGATATGGACGTGGACACAGGCCTAGGTATAGACAGATACACTTAATGTAAACATGCACGTATATACATTCAAGTACTGTTAGGTACTGGGGATCCAAAGGTGGCTTCTATTAACAACAGCAGCCCTTACTCACTGAACATATCCTGTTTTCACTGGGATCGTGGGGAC,0.358 ratio
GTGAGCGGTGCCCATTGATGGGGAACTGGAAATAAATATTATGATAGCATCCTTGTTTCCATGGAAACATCGCTATCAGTATACCTCTGAATATGCATTTGCCTTTGTTTCTCTGGCTAAGTAAACAAGCATAAATCCATACTACTTGTTTTCTTTATAAGTTTTATCTGAGATCCAGAATAAGCCAACAGCAAGAGAGCAATGAGTGCAATTTTGTACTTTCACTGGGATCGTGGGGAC,0.494 ratio
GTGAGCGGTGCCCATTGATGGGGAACCCAAAGTATCACAGGGAGAGATGGGCCTCTTGGGGCAGCAGCAGCAGCTGAAGCAGGCTGACTCACAGCTGCTTCTAATATGCTAGGCTTTGTGTAATCTGGCTTTATGACACAAGTGGGCTGACTACAGTGCAATTGGAGTGTGGCATCTGAGTCACTGTGAGGCTCTAGCTGGCTTCTTCCAGCCCTGGCCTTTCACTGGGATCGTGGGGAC,-0.0197 ratio

# Study 4
# Target: Fragile X messenger ribonucleoprotein 1, C-terminal low-complexity region (Fmr1, Mus musculus, UniProt P35922)
# Technique: RNA Bind-n-Seq
# Form: RNA
# Medium: in vitro
# Tested at: 200 nM
# Setting: whole 134-nt RNA, ends assumed
# With: 150 mM LiCl
# Relative to: input library
# Direction: higher = stronger binding
# All molecules: 7-deaza-guanosine replaces G
Oligonucleotide,log2 enrichment
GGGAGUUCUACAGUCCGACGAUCUUCCCAAGAUGGCGGCGGACGUGUCCGUUACUCACCGGCCCCCGCUGAGCCCUAAGUCUGGGGCCGAAGUCGAAGCCGGCGAUGCCGCGGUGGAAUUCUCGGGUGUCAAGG,-3.84
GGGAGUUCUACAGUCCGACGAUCUGGCCCUGGUGGCAUGCGGGGAGGAAGAGGUGGCCUCAUAGAUCGUGGUGGUCCCGGUGGAAUGUUCAGAGGUGGCCGUGGUGGAGACAGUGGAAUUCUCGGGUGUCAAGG,0.252
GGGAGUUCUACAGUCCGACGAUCUGAAAAGAACUGCUCUCCAUGGAGAGAGUAACUCUGUCCUUAUUAUCGGACCCCGAGGAUCAGGAAAAACUAUGGUAAAAGCUGUUGAUUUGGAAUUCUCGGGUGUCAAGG,-3.71
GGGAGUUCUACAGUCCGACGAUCCUGUGCUACACAUCGUAUGUACCGAAUCGGUUUUUUUGGGUUUUUUUGGGGUUUUUUUGGGAAAGUAUUAUGUUACGCCGUUCGGAUCUGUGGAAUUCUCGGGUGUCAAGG,0.667
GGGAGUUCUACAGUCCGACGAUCUUCAGGAUGAAGAUGCAUCAGGGGGCGAUCAAGAUCAGGAAGAAAGAAGAUGGAACAAAAGGACUCAGCAGAUGCUUCAUGGUCUUCAGGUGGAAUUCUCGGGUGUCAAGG,-2.57
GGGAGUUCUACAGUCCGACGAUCCUGUGCUACACAUCGUAUGUACCGAAUCGGAAAAAAAGGGGAAAAAAAGGGAAAAAAAGGGAAAGUAUUAUGUUACGCCGUUCGGAUCUGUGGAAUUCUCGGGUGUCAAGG,-0.305
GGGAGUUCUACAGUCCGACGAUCUGGGAGGUGGAUUUUGUUUAUUUUUUUAGCUCAUUUCCAGGGGUGGGAAUUUUUUUUUAAUAUGUGUCAUGAAUAAAGUGGUUUUUGAAAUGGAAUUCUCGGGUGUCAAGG,0.413
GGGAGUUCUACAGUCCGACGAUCACCAUCCAGGUGGGCAUCUUUGGGAAGUGGGGCAAGGGGGGGAUAGGGAGGGGGGUAACACUUUGGGAACAGGUGGUCCCAGGUCGUUUCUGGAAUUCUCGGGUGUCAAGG,1.41

# Study 5
# Target: CCND1, cyclin fold, Cln2 fusion (human)
# Technique: yeast growth competition, sequencing
# Medium: yeast
# Setting: strong parent motif
# Relative to: not given
# Direction: higher = stronger binding
# Parent: viral docking peptide; YKVKRRLVFGADD; partner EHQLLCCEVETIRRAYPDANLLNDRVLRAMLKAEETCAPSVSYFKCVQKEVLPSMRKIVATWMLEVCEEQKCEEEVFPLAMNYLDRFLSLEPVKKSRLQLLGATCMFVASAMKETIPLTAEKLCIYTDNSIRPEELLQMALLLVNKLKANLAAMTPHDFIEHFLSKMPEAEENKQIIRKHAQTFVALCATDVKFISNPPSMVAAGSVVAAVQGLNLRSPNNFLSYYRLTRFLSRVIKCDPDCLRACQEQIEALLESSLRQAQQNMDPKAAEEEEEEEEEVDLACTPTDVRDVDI
Substitution,normalised enrichment score
YKVKRRLEFGADD [V8E],2.83
YKQKRRLVFGADD [V3Q],0.343
YCVKRRLVFGADD [K2C],2.75
YKVKRRVVFGADD [L7V],-0.112
YKVKRRLVFAADD [G10A],1.84
YKVKRILVFGADD [R6I],0.651
YKVRRRLVFGADD [K4R],2.95
YKVKRRCVFGADD [L7C],-0.423
YKVKRHLVFGADD [R6H],0.463
YKVKRRLVWGADD [F9W],0.396
YKVKRRLVFKADD [G10K],1.34
YKVIRRLVFGADD [K4I],0.416
YKVKRRLVSGADD [F9S],-0.0283
YKRKRRLVFGADD [V3R],0.277
YKVKRRLVFGASD [D12S],1.12
YKVWRRLVFGADD [K4W],0.663
YKVKRRLVMGADD [F9M],-0.0366
YYVKRRLVFGADD [K2Y],0.982
YKVKRVLVFGADD [R6V],1.13
YKVKRCLVFGADD [R6C],1.21
YKVKRRLVFGSDD [A11S],2.55
YKVKRMLVFGADD [R6M],1.07
YKVKRRLVFGAFD [D12F],0.843
YKVKRRMVFGADD [L7M],-0.088
YKVKRRPVFGADD [L7P],-0.00568

# Study 6
# Target: UBE2D2 UBC core domain (UniProt P62837)
# Chain of UniProt P62837 (whole entry, looked up): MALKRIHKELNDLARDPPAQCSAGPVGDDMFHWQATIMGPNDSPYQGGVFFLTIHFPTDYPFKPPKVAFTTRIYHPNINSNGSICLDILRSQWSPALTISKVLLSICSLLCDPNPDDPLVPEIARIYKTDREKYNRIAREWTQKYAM
# Technique: yeast two-hybrid
# Medium: yeast
# Setting: mostly zero background
# Relative to: not given
# Direction: higher = stronger interaction
# B1: Ltn1 RING domain (UniProt Q6A009); chain VDKRFEGVEDCMICFSVIHGFNYSLPKKACRTCKKKFHSACLYKWFTSSNKSTCPLCRETFF
Molecule,lacZ reporter activity
NTAPSLTVPECAICLQTCVHPVSLPCKHVFCYLCVKGASWLGKRCALCRQEIPEDFLDK (RNF146 RING domain (UniProt Q9NTX7)),0
ALDRLEKLLRCSRCTNILREPVCLGGCEHIFCSNCVSDCIGTGCPVCYTPAWIQDLKI (BARD1 RING domain (UniProt Q99728)),0
B1 (Ltn1 RING domain),4740

# Some of these lines once more (study 2):
Oligonucleotide,4-mer enrichment [fold]
AACA,0.852
CACA,0.687
UGAU,0.878
CUCG,0.536
